# Results from different studies.
# Each numbered part is a random draw from the data of one study; scales do not carry over between parts.

# Sample 1 — method: universal PBM; form: double-stranded DNA, one strand shown; medium: in vitro; tested at: not given; reading: higher = stronger binding
# Target: Sal-like protein 4, full length isoform B (SALL4, Homo sapiens, UniProt Q9UJQ4-2, residues 1-616)
# Notes: 8-mer, flanks averaged, mean of replicates
# Target sequence (chain): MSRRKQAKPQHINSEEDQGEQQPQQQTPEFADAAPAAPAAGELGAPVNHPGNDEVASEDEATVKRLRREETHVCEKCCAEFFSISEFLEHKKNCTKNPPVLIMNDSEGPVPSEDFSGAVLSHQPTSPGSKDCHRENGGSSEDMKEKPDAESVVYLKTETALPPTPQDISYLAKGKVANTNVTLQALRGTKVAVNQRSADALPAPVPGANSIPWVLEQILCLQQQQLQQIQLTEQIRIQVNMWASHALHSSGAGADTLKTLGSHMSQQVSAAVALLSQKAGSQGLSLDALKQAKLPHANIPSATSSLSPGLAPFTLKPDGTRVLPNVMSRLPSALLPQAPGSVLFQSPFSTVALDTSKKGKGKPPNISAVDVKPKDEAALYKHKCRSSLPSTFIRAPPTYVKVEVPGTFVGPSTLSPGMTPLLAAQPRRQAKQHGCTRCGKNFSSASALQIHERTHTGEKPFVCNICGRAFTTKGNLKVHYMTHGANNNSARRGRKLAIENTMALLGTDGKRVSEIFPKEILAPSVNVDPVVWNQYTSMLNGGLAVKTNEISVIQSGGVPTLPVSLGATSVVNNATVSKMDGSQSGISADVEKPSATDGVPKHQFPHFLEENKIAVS
Oligonucleotide,E-score
AAAAAGTA,0.241
CAGCGATC,-0.162
ATGTTTGA,0.199
CTGCGTTA,-0.0492
GAGCTGAC,-0.246
CAATCGTC,-0.0454
CTTAGGGC,-0.111
GCCATGCA,0.0322
CGGTTTTC,-0.156
AAAACCTG,0.0396
CGTTAACC,-0.0687
ACGCCTCA,-0.0375
ACTCAAGC,-0.0836
CCAATCAA,-0.0104
CCCACCAG,-0.251
AGCAGCGG,-0.435
GACACTGA,-0.0783
AATAAGCG,0.154
ACGCGGAG,-0.223
CATTCACC,0.0324
CGAAAACC,-0.03
ACCTTACC,-0.0101
AAACTCCC,0.0116
CACGACGG,-0.0783
GATAGATC,0.0554

# Sample 2 — method: protein-binding microarray; form: double-stranded DNA, one strand shown; medium: in vitro; tested at: 940 nM top; notes: 60-bp whole probe; together with: salmon DNA 0.4 mg/ml; reference: random background probes; reading: higher = stronger binding; shared flanks, not repeated: GCCTAGCAC … GTCTTGATTCGCTTGACGCTGCTG
# Target: Interferon regulatory factor 5, full length, phosphomimetic (IRF5, Homo sapiens, UniProt Q13568-2, residues 1-514, S451D/S453D/S456D/S462D)
Oligonucleotide,fitted relative affinity [z-score]
TTAGGTCTCAGTATCGGTTAGTGCTAG,5.07
GTCGATTTCGGGTATCGAGACGTGCTA,2.83
TTAGGACTGGACTGTCGGTTAGTGCTA,-0.482
GACGGTATTGGTTTCGGGACGTGCTAG,6.47
TCAGGTCTCCTACTGCTTTAGTGCTAG,0.0724
TTAGGTCTCCTTTTCCTTCAGTGCTAG,0.879
TTAGGACTGTGACTGGGTTAGTGCTAG,-0.499
GACGGTTTCGACTTTCGGGACGTGCTA,7.38
TTAGATATCCTTTTCCTTTAGTGCTAG,0.763
TCATTTCTTTTATTAGTACTGTGCTAG,1.61
TTAGGACTGGGGTATCGGTTTGTGCTA,2.49
TTAGAACTTGGGTTTCGATTAGTGCTA,5.61
GACGGTATCTTTTTCCTGACGTGCTAG,1.01
TTAGATTTCAGACGGGATTAGTGCTAG,-0.282
TTAGGTTTCGATATCGGTTAGTGCTAG,14.4
TCAGGACTGGGGTTTCGGTTAGTGCTA,6.05
TTAGGACTGGTTATCCTTTAGTGCTAG,-0.24
TTAGTTCTCGGTTTCGGTTAGTGCTAG,11
ACAGATGAGGAACCAAGGCCGTGCTAG,-0.648

# Sample 3 — method: RNA Bind-n-Seq; form: RNA; medium: in vitro; tested at: 365 nM; reference: no-protein control; reading: higher = stronger binding
# Target: RNA binding protein fox-1 homolog 2, RRM domain, GST-SBP tag (RBFOX2, Homo sapiens, UniProt O43251-10, residues 100-194)
# Notes: natural RNA segment, single round, ends assumed
# Shared flanks, not repeated: GGGAGUUCUACAGUCCGACGAUC … UGGAAUUCUCGGGUGCCAA
# Target sequence (chain): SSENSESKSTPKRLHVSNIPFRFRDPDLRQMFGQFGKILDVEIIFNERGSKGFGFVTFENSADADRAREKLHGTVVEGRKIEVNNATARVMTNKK
Oligonucleotide,RBNS enrichment (R)
CCCAGGCCCCAAUGCUUGUGUGUGGACCAGCGGCUGCAGCCUUCUAGCCCCUCCUCCCCGCGAGACUCUCAGGCUGAGGUCGGCAAGCCGUGGCUCCCCCACACACCGUG,0.272
AGUGGCUUAGGAACAUCAGCAGUGAAGAACUGCCAAGAGUUGGUGAAGGUUGUCUCUUCCGAGGGCCUUCUGAAGACAGGGCUCUUGAACAGACAAGUGGAAGGGCUGUA,0.365
UGCUUCGUGUGUGUCCCCACACAACACACACUUAAAGCCAUCUGUCACUCUGUAAGUUAUUUUGUACAUUCUCUACUCUUAAAAGUGUCCCCCAGUCAGUUCCUUUAACA,0.388
UGUUUUUGCUUUUCCUUCAGGGUUUUAUUUUUGACUGUUUUGUUUUCUUGUUGGCCAUUUCUGUAUUGCUGGCAUCUGUGCUAAGCUUUACAGUGGCAAAAAUAAUGACA,1.46
AAGUUAUAAGAACGUACACAGUGAAAGGAGUACAAGAGCAGUGUAAAGAAAUAGUUUUCUUAGAUAUUUGUCACAUACUACUUAAAUAAAAUUCUCUUGGGUUUAAUCUU,0.43
UUCAUUCUGUGGAAUUUUGUGCUUGCUACUGUAUAGUGCAUGUGGUGUAGGUUACUCUAACUGGUUUUGUCGACGUAAACAUUUAAAGUGUUAUAUUUUUUAUAAAAAUG,3.56
UAGACUAAAGCACCGGGCGGUCCAGCUGUAGCUGUUCUUCAGUGAGGGUGAGGAUCAGUGUAUUAGAGCAUCUUCGGAGUGUUACCUACCAGUGUUGUCCAGAAGAAGCA,4.37
AUAACGAAACUGUAGUUUUCAGAUUGAAGAAUGAACCUGGAUCACCAAACUAGAUACCGAAAGGGCUCCUCAUUUGUCUCUUUUGUCCCAUUGUGGGCAUAUGGUGGGCU,0.38

# Sample 4 — method: RNA Bind-n-Seq; form: RNA; medium: in vitro; tested at: not given; reference: input RNA pool; reading: higher = stronger binding
# Target: RING finger protein unkempt homolog, zinc fingers 1-6, GST-SBP tag (UNK, Homo sapiens, UniProt Q9C0B0, residues 30-357)
# Notes: RNA with constant flanks, human-mouse chimeric sites, ends assumed
# Shared flanks, not repeated: GGGAGUUCUACAGUCCGACGAUC … CAACAGAGGAUUGAGCAUCA
# Construct (chain): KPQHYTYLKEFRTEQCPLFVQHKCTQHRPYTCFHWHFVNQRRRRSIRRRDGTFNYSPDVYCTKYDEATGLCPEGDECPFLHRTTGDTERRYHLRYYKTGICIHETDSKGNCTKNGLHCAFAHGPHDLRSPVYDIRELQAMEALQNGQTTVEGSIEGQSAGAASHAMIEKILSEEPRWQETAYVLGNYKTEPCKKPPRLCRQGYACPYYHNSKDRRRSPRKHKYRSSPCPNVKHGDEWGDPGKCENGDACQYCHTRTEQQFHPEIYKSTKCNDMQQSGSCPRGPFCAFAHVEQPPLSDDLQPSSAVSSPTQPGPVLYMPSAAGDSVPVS
Oligonucleotide,bound/input enrichment [ratio]
GAUGAUAAUCACACAAAUGUGGCACUUUUACAUGACCAGCCUUGGGAUUCUUCUCCUGAUUAAUAUUCUCCCUGGAACCACUGGUCAAGGGGAAUCAAGACGACAAGAACCCGGGGACUU,0.0964
GUCAACAGCUGCCUCAACCCCAUCCUCUACGCCUUCCUGGAUGAGAACUUCAAGGCCUGCUUCCGCAAGUUCUGCUGUGCUUCUGCCCUGCACCGGGACGUGCAGGUGUCUGACCGCGUG,0.283
AAUUUCCUGUCAUACUUUGUAGCAAGACACAUCAGACUUACAGAGCACCUGGCCACAUUCUAGGUUUGUGUUAUUUCUCAGCUAUGGAUAUGAUCAAAUGAGAACACUGCUUAACUAAUG,0.162
UACUCAACUUUCUUGCCACAUUUUGAAUUCCAAGAUGUUAUUCCUCCAGAUGACUUCCUAACGAGUGAUGAAGAGCAAGAUUUGGUUUUAUUUGGAAGUUUGAGAGGACAAGUUGUUGGA,0.17
UAAGUCCUGUGCCAGCACUUCGCUCAUUAUAUUUUAAAUUCUGGACCAAUAGUGUUUGUUUCCUGAUUAUUGUAUCCAAUACUUUGCCUAGUAUGUAACUCACUCUUCUGGAUAAAUAAA,6.66
ACUCAGAGAUCCACCUCCCAAAGUGCUGGGAGUAAAGUCUGAUAUUACACACCUAACUUGAUGGAUAUAUAUUUUUUUUAAUAUGAAUCUUCCUGUUCGUCCAGGGAGCAAGAACGGGUU,0.231
GAGCCCAGCCGGCAGUUUGUAAAGGACUCAAUUCGGCUGGUUAAAAGAUGCACUAAACCCGACAGAAAAGAAUUCCAGAAGAUUGCCAUGGCUACAGCUAUAGGAUUUGCUAUAAUGGGA,0.314
AACAGAUUGUCUUUAAGCAUUCCAAGCAAUGCUUGGGGGGUGAUCAUUGUUGCCCAUGUGCCUUCUGACUGAGCUUUUAAUUAAUUGCAUGUUACAUCUUUCCUUCACUCCAGAAUUGUU,0.25

# A few entries again (sample 1):
Oligonucleotide,E-score
CGTTAACC,-0.0687
ACGCCTCA,-0.0375
ACTCAAGC,-0.0836
CCAATCAA,-0.0104
CCCACCAG,-0.251
